Measured values collected from several papers.
Numbered parts are unrelated; each lists some results of a single study. Substitutions count along the parent as printed.

Study 1
Target: Centromere-binding protein 1, full length, His-tagged (CBF1, Saccharomyces cerevisiae, UniProt P17106, residues 1-351)
UniProt P17106, sequence (whole entry, looked up): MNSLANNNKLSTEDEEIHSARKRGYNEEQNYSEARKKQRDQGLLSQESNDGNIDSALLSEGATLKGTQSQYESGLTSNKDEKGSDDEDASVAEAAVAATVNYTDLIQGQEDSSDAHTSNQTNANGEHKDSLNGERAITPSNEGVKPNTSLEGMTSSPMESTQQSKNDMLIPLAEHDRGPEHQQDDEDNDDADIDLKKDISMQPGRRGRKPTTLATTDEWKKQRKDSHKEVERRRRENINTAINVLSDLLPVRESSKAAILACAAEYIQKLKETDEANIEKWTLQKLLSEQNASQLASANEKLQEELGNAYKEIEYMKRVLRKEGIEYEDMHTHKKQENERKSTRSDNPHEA
Technique: competition protein-binding microarray
Molecule type: double-stranded DNA, one strand shown
Matrix: in vitro
Concentration: 2 µM
Setting: whole 60-bp probe, lowest competitor level
With: Pho4 competitor, 0.05 µM
Reading: higher = stronger binding
Quantity: fluorescence intensity
GTGATATATTTGATACTTTTGAGATATCCTTGAAAGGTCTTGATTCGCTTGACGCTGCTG: 116 a.u.
AAATTACTAAGTTGACAGGTGGGTGACGCCGTATGAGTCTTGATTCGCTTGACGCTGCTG: 68.8 a.u.
GATAACCTCCTTAGCACCGTGATTGTTTAATGTGTCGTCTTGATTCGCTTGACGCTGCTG: 125 a.u.
CTAACGAAGGTTTGTCACCGGACTTACAAGCCAAGTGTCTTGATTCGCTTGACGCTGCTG: 82 a.u.
TCAACACTGTACTGTCACATGCTAATAAAGATAACAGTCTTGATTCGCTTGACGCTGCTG: 1030 a.u.
CTTCTGTAAATTTGTATCGTGGGTGGACGCGCCCCGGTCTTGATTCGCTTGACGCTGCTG: 90.7 a.u.
GCATCCACAACCGCTCTCGTGGAACCAAACGAAGATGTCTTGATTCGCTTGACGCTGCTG: 67.8 a.u.
CGATTTTTGCCTCACCACGTTCTGCCCATTCTTCTCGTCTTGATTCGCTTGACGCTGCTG: 100 a.u.
CGTCCTAGCGATTGAATAGTGGGTGCCATGAGGAAGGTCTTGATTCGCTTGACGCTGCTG: 77.8 a.u.
TGCGCAACAACTTGCATAGTGGGTGTATGTCTAGAAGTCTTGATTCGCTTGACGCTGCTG: 65.1 a.u.
AAATTACTAAGTTTTCACGTGAAGTACCCCGTATGAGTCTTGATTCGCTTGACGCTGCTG: 801 a.u.
TACGTTCTGAGAAAGCACGTGAAGGAAGAGAAAACCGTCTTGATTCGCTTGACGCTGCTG: 1330 a.u.
CATACCCAACCTTTTCACGTGGTGTAAGATATTTGTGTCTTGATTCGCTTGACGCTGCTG: 1080 a.u.
GTCTTGTCTCATTGGTGAGTGGGTGTCCCCACTTCAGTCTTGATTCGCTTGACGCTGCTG: 70.7 a.u.
TAAGGGCCAGGATGACAGGTGATGCTGCTTGCATTTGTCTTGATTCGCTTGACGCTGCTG: 79 a.u.
TGAGGGTTATCCAAGCGCATGACAATAAATGAGCGGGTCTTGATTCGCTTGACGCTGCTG: 190 a.u.
CTAACGAAGGTTTGGGGGGTGGGTGACAAGCCAAGTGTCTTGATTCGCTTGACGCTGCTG: 112 a.u.
AAAGCGGTAATTTGTCACGTGTTTTCACATATCTATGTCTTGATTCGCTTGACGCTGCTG: 7820 a.u.
CCAATTAACCAAAGCCACGTGGATTTGTCATCAGAGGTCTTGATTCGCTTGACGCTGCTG: 1000 a.u.
GGGTACTGGTGCCGTCACGTGTGGACCATCTAATTCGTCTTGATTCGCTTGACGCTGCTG: 1940 a.u.
TGAAAAGTTACGGATCAGGCTTTAACCACCGTAGACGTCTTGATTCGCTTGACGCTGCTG: 66.5 a.u.
TTGAACGGTGGTACCCACGCTGGTGGTGCTTTGGCTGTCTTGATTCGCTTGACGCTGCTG: 46.3 a.u.
AGCTCTCTTGTCAGACACGTTTTGTCGAATTTCTTGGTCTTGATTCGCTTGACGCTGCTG: 135 a.u.
ATGCCCGACCGTACCGACGTGGCAATATTTTTGGGAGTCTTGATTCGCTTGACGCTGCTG: 64.3 a.u.

Study 2
Target: ABI1, truncated, D143A, DHFR fusion (Arabidopsis thaliana)
Technique: DHFR PCA, deep sequencing
Matrix: yeast
Setting: methotrexate growth selection, single substitutions
With: (+)-ABA 0.032 µM
Baseline: wild-type fitted maximum
Reading: higher = stronger binding
Quantity: relative binding score
Parent: PYL1, truncated, DHFR fusion (Arabidopsis thaliana); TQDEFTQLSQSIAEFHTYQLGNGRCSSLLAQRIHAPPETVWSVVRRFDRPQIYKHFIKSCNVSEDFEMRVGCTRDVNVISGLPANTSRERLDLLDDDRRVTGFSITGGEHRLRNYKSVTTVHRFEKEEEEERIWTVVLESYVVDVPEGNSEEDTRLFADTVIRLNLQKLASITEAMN
I33N: -3.36%
R45T: 1.57%
T120G: -1.84%
T154C: -3.62%
T1M: 22.5%
H34A: 52.7%
L93D: -2.23%
I57F: -3.81%
C60K: -6.91%
R163E: 5.93%
P50V: -5.58%
F124E: 4.39%
C25I: 45.1%
L28I: 64%
L93F: 11%
I133A: 42.5%
N149H: 31.2%
E151H: 17.2%
E152G: 2.11%
S27I: -9.28%
E127T: 37%
K126M: 59.1%
P146A: 29.4%
H122A: 5.02%
K58Y: 3.03%

Study 3
Target: UBE2V1 UBC core domain (UniProt Q13404)
Technique: yeast two-hybrid
Matrix: yeast
Setting: mostly zero background
Baseline: not given
Reading: higher = stronger interaction
Quantity: lacZ reporter activity
B1: TRIM15 RING domain (UniProt Q9C019); chain SLKVVHELPACTLCAGPLEDAVTIPCGHTFCRLCLPALSQMGAQSSGKILLCPLCQEEEQAETPMA
B2: RNF4 RING domain (UniProt P78317); chain TGLRPSGTVSCPICMDGYSEIVQNGRLIVSTECGHVFCSQCLRDSLKNANTCPTCRKKINHKRYHP
B3: PHF7 RING domain (UniProt Q9BWX1); chain IQHGHVGEESCILCCEDLSQQSVENIQSPCCSQAIYHRKCIQKYAHTSAKHFFKCPQCNNRKEFPQEML
B4: TRIM3 RING domain (UniProt O75382); chain VQPMDKQFLVCSICLDRYQCPKVLPCLHTFCERCLQNYIPAQSLTLSCPVCRQTSILPEQGV
B5: PEX2 RING domain (UniProt P28328); chain DNTLATSGKECALCGEWPTMPHTIGCEHIFCYFCAKSSFLFDVYFTCPKCGTEVHSLQPLK
B6: TRIM38 RING domain (UniProt O00635); chain STKKMMEEATCSICLSLMTNPVSINCGHSYCHLCITDFFKNPSQKQLRQETFCCPQCRAPFHMDSLRP
B7: RNF150 RING domain (UniProt Q9ULK6); chain DKETESDFDNCAVCIEGYKPNDVVRILPCRHLFHKSCVDPWLLDHRTCPMCKMNILKALGIP
B8: MSL2 RING domain (UniProt Q9HCI7); chain LLPYFRQSLSCCVCGHLLQDPIAPTNSTCQHYVCKTCKGKKMMMKPSCSWCKDYEQFEENKQ
B9: RNF5 RING domain (UniProt Q99942); chain ERGGAGATFECNICLETAREAVVSVCGHLYCWPCLHQWLETRPERQECPVCKAGISREKVVP
B10: TRIM52 RING domain (UniProt Q96A61); chain PMQTLQEEAVCAICLDYFKDPVSISCGHNFCRGCVTQLWSKEDEEDQNEEEDEWEEEEDEEAV
B11: RFPL2 RING domain (UniProt O75678); chain MAALFQEASSCPVCSDYLEKPMSLECGCAVCLKCINSLQKEPHGEDLLCCCSSMVSRKNKIRR
Construct (chain): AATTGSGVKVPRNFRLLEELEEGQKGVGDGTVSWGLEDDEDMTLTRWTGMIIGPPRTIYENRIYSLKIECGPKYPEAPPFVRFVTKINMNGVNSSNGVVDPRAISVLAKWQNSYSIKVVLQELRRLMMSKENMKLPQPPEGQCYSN
B1 (TRIM15 RING domain): 0
B2 (RNF4 RING domain): 0
B3 (PHF7 RING domain): 0
MANWVFCNRCFQPPHRTSCFSLTNCGHVYCDACLGKGKKNECLICKAPCRTVLLSK (RNF212 RING domain (UniProt Q495C1)): 0
B4 (TRIM3 RING domain): 0
B5 (PEX2 RING domain): 0
B6 (TRIM38 RING domain): 0
B7 (RNF150 RING domain): 0
ISNDSETLEECMVCSDMKRDTLFGPCGHIATCSLCSPRVKKCLICKEQVQSRTKIE (MIB1 RING domain (UniProt Q86YT6)): 0
KIKDLNEHIVCCLCAGYFVDATTITECLHTFCKSCIVKYLQTSKYCPMCNIKIHETQPLL (PCGF1 RING domain (UniProt Q9BSM1)): 0
B8 (MSL2 RING domain): 0
B9 (RNF5 RING domain): 0
B10 (TRIM52 RING domain): 0
B11 (RFPL2 RING domain): 0
SYEDKSNDFVCPICFDMIEEAYMTKCGHSFCYKCIHQSLEDNNRCPKCNYVVDNIDHLY (COP1 RING domain (UniProt Q8NHY2)): 0

Study 4
Target: CCNF, cyclin fold, Cln2 fusion (human)
Technique: yeast growth competition, sequencing
Matrix: yeast
Setting: strong parent motif
Baseline: not given
Reading: higher = stronger binding
Quantity: normalised enrichment score
Parent: ANKRD17 docking peptide (human); PSVRRQLFVTVVK
R5K: 3.58
V11A: 9.36
K13A: 7.64
L7A: 1.8
Q6A: 8.73
R4A: 6.63
F8L: 2.44
R5A L7A: 0.444
T10A: 8.87
S2A: 8.64

Study 5
Target: Sal-like protein 4, full length isoform B (SALL4, Homo sapiens, UniProt Q9UJQ4-2, residues 1-616)
Technique: universal PBM
Molecule type: double-stranded DNA, one strand shown
Matrix: in vitro
Concentration: not given
Setting: 8-mer, flanks averaged, mean of replicates
Reading: higher = stronger binding
Quantity: E-score
Residues (chain): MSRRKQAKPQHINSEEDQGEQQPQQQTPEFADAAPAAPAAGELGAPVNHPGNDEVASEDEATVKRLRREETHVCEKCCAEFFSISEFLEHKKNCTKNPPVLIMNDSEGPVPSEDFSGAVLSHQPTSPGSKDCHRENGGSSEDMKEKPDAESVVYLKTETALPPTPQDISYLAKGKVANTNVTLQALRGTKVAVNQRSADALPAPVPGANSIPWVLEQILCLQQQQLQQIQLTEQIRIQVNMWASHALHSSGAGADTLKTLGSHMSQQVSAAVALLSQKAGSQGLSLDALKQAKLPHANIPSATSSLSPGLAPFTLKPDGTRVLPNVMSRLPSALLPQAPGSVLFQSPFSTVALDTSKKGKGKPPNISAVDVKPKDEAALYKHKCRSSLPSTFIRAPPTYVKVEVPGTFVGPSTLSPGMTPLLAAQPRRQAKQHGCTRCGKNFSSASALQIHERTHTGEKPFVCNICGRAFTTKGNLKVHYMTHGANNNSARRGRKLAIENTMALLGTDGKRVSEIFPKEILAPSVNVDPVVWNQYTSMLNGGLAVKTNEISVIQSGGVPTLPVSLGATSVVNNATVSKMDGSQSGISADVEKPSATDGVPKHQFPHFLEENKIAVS
TATGTAGA: 0.212
AAGTGTTC: 0.00928
GGTGGCAC: -0.275
GATTCGGA: 0.0921
ATCCCCAA: 0.0324
CCAACGAC: -0.114
AACACCGT: -0.07
GCCCGGTA: -0.302
CGCAACAA: 0.0482
GTGTGTAA: 0.125
AAGTAGAA: 0.182
CGAAAGTA: 0.058
ACACACTA: 0.0795
ACGGCCGG: -0.208
CGCAAGCC: -0.292
AGACATCT: 0.134

Study 6
Target: Histone acetyltransferase KAT6A, winged helix 2, GST fusion (KAT6A, Homo sapiens, UniProt Q92794, residues 85-181)
Technique: protein binding microarray
Molecule type: double-stranded DNA, one strand shown
Matrix: in vitro
Concentration: not given
Setting: 8-mer, flanks averaged, mean of 2 arrays, mostly near background
Baseline: not given
Reading: higher = stronger binding
Quantity: E-score
Residues (chain): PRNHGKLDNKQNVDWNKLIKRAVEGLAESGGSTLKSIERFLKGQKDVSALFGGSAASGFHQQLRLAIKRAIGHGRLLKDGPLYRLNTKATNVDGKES
GCTGCCAA: -0.00741
TACTTTCA: -0.00517
CTTCCTAC: -0.0918
AAAGACGT: -0.153
CTCGTCCA: 0.155
CCCGCAAG: -0.064
AGCATTTG: -0.0567
GTCGTTAA: -0.0569
GTCGTGTA: -0.148
AGTACGCA: 0.0242
AAGGACGG: -0.162
GTCCGCTA: 0.0971
CACGATTA: -0.00313
CGAAGGCG: 0.177
CAAACGAC: 0.23
CTGTAGTA: -0.037
CCCAAATC: 0.0591

A few entries again (study 1):
TGCGCAACAACTTGCATAGTGGGTGTATGTCTAGAAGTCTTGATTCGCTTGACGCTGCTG: 65.1 a.u.
GTCTTGTCTCATTGGTGAGTGGGTGTCCCCACTTCAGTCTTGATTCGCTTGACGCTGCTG: 70.7 a.u.
TGAAAAGTTACGGATCAGGCTTTAACCACCGTAGACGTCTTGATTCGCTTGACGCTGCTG: 66.5 a.u.
CTAACGAAGGTTTGTCACCGGACTTACAAGCCAAGTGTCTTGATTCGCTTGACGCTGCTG: 82 a.u.
CGATTTTTGCCTCACCACGTTCTGCCCATTCTTCTCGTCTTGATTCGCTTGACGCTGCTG: 100 a.u.
CTTCTGTAAATTTGTATCGTGGGTGGACGCGCCCCGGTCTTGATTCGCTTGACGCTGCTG: 90.7 a.u.
GATAACCTCCTTAGCACCGTGATTGTTTAATGTGTCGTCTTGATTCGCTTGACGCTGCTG: 125 a.u.
ATGCCCGACCGTACCGACGTGGCAATATTTTTGGGAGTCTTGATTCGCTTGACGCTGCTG: 64.3 a.u.
TGAGGGTTATCCAAGCGCATGACAATAAATGAGCGGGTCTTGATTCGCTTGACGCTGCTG: 190 a.u.
AAATTACTAAGTTTTCACGTGAAGTACCCCGTATGAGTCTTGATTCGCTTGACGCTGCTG: 801 a.u.
TCAACACTGTACTGTCACATGCTAATAAAGATAACAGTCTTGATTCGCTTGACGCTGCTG: 1030 a.u.
AGCTCTCTTGTCAGACACGTTTTGTCGAATTTCTTGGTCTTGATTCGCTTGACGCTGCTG: 135 a.u.
TACGTTCTGAGAAAGCACGTGAAGGAAGAGAAAACCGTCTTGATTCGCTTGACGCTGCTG: 1330 a.u.
